Experimental data pooled from the literature.
Protocols differ between the studies behind these lines. ± gives the spread as reported. ≈ marks a conversion by molar mass, not a printed value.

SMILES | assay | test system | conditions | how to read | quantity | value
C=C(c1cc(F)c(C(=O)O)c(F)c1)c1cc2c(cc1C)C(C)(C)CCC2(C)C |  | Sprague-Dawley rat, male, plasma | oral, 100 mg/kg, 6 h, sesame oil vehicle |  | LDL level | 7 ± 1.5 mg/dL
Cc1noc(C)c1Cn1cc(N2C(=O)CN(Cc3cccc(OS(=O)(=O)O)c3)C2=O)cn1 |  | rat Sprague-Dawley male, plasma | oral, 30 mg/kg of parent drug |  | half-life | 150 min
Cc1[nH]nc2c1N=C(c1ccccc1Cl)c1cnc(NCCOCCO)cc1N2 |  | human, feces | oral, 10 mg, 0 to 192 h | baseline: dose | excretion in feces | 3.14%
CC(C)NC(=O)N1CC=C(c2cc3c(Nc4cc5ncsc5cc4F)ncnc3s2)CC1 |  | human liver microsomes | 1 µM |  | intrinsic clearance | < 12 mL/min/g protein
CC(C)c1cnc(-c2cc(Cl)ccc2F)cc1Nc1ccncc1C(=O)NC(CO)CO | monotherapy, refers to: blood alkaline phosphatase increased | human patients | oral, dose not given, grade 4, phase I A |  | patients with treatment-related adverse event | 0%
O=C(NCCCN(CCCCN(CCCNC(=O)c1cccc(=O)n1[O-])C(=O)c1cccc(=O)n1[O-])C(=O)c1cccc(=O)n1[O-])c1cccc(=O)n1[O-].[89Zr+4] | radio-TLC | PBS | 7 d, pH 7.4, 37 °C, added: Mg^2+ 10-fold excess |  | intact complex | 98.7 ± 1.8%
CCCC[C@@H]1NC(=O)[C@@H](NC(=O)[C@H](CCC(=O)O)NC(=O)CNC(=O)CN2CCN(CC(=O)O)CCN(CC(=O)O)CCN(CC(=O)O)CC2)CCCCNC(=O)C[C@@H](C(N)=O)NC(=O)[C@H](C(C)C)NC(=O)[C@@H]2CCCN2C(=O)[C@H](CCCNC(=N)N)NC(=O)CNC(=O)[C@H](Cc2c[nH]c3ccccc23)NC(=O)[C@H](CCCNC(=N)N)NC(=O)[C@@H](Cc2ccccc2)NC(=O)[C@H](Cc2c[nH]cn2)NC(=O)[C@H](CCC(=O)O)NC1=O [gallium-67 labelled] |  | C57 mice, B16/F1 flank melanoma, muscle | intravenous, 2 h, added: blocking peptide 10 µg |  | tissue uptake | 0.09 ± 0.06 %ID/g
CCCCCCCCCCCCCCCC(=O)NCCOCCOCCOCCOCCOCCOCCOCCOCCC(=O)NCCCC[C@H](NC(=O)CNC(=O)[C@@H]1CSSC[C@H](N)C(=O)N[C@@H](Cc2ccc(O)cc2)C(=O)N[C@@H]([C@@H](C)CC)C(=O)N[C@@H](CCC(N)=O)C(=O)N[C@@H](CC(N)=O)C(=O)N1)C(=O)NCC(N)=O |  | mouse | subcutaneous depot, dose not given |  | duration of sustained plasma level | > 20 h
CC(C)(C)NCC(SS(=O)(=O)O)c1ccccc1 (stereo not drawn) |  | mouse liver microsomes | glucuronidation |  | intrinsic clearance | 0.333 µL/min/mg
CC(=O)N[C@H](CC(=O)O)C(=O)N[C@H](Cc1c[nH]c2ccccc12)C(=O)N[C@H](Cc1ccccc1)C(=O)N[C@H](CCCCN)C(=O)N[C@H](C)C(=O)N[C@H](Cc1ccccc1)C(=O)N[C@H](Cc1ccc(O)cc1)C(=O)N[C@H](CC(=O)O)C(=O)N[C@H](CCCCN)C(=O)N[C@@H](C(=O)N[C@H](C)C(=O)N[C@H](CCC(=O)O)C(=O)N[C@H](CCCCN)C(=O)N[C@H](Cc1ccccc1)C(=O)N[C@H](CCCCN)C(=O)N[C@H](CCC(=O)O)C(=O)N[C@H](C)C(=O)N[C@H](Cc1ccccc1)C(N)=O)C(C)C |  | statin-treated high-risk CHD men, plasma | oral, 100 mg daily, day 13, 0 to 8 h, mean, detected subjects only |  | Cmax | 2.72 ng/mL
COc1cc(-c2nc3ccccc3s2)cc(CN2Cc3cccc(n3)CN(CC(=O)O)Cc3cccc(n3)C2)c1O | UV-vis spectrophotometric titration, refers to: H4L3+/H3L2+ equilibrium | MeOH/water with NaCl | 50 µM, room temperature, NaCl 0.1 M, MeOH ≤20% v/v |  | pKa1 | 4.57
O=C(O)C1CN(Cc2ccc(-c3noc(-c4ccc(OCC[18F])c(C(F)(F)F)c4)n3)cc2)C1 |  | male Sprague-Dawley rat, spleen | intravenous, 120 min |  | tissue uptake | 0.202 ± 0.033 %ID/g
CC(C)[C@H](NC(=O)CNC(=O)[C@H](CCC(N)=O)NC(=O)[C@H](C)N)C(=O)O |  | human | up to 30 mg/kg three times daily, 3 days |  | Cmax increase over dose-proportional | 126%
COCC1CN(C2CCN(c3cc(OC)c(Nc4ncc(Br)c(Nc5ccc6c(c5P(C)(C)=O)OCCO6)n4)cc3C)CC2)C1 |  | human patients | oral, dose not given |  | grade ≥3 treatment-related hypercalcemia | 3.7%
CC(C)CCCC(C)CCCC(C)CCOC1O[C@H](CO)[C@@H](O)[C@H](O)[C@H]1O (stereo partly drawn) | drop shape tensiometry | water | room temperature |  | surface tension at CMC | 27.1 mN/m
Cn1c(=O)oc2ccc(-c3ccc(CC(C#N)NC(=O)C4CNCCCO4)c(F)c3)cc21 (stereo not drawn) |  | human | oral, 40 mg once daily, TEAE, multiple ascending dose |  | CPK increased incidence | 11.1%
COc1ccc2ccc3c(c2c1)C=[N+]1C2CCCCC2[N+]2=Cc4ccc(OCCN5CCCCC5)cc4[O][Au-]21[O]3.F[P-](F)(F)(F)(F)F (stereo not drawn) | ICP-MS, refers to: gold | mouse | intraperitoneal, 5 mg/kg, 24 h |  | blood concentration | > 1000 ng/mL

SMILES | assay | test system | conditions | how to read | quantity | value
CC(=O)O[C@@H]1[C@@H](OC(C)=O)[C@H](Sc2sc(C(=O)c3ccc(Br)cc3)c(N)c2-c2nc3ccccc3s2)OC[C@H]1OC(C)=O |  | DMEM | 72 h |  | maximum nontoxic concentration | 100 µg/mL
CN(C)S(=O)(=O)c1cc(C(=O)O)ccc1NCCCCCCCC(F)(F)F |  | WT and Ts65Dn mice | ip, 0.2 mg/kg daily, 4 weeks |  | liver kidney spleen histopathology | no effect
CCn1c(=O)n(CCO)c(=O)c2c1nc(/C=C/c1ccc(OC)c(OC)c1)n2C |  | healthy humans, plasma | oral, 40 mg, added: rifampin 600 mg/day | baseline: with over without rifampin | geometric mean ratio Cmax | 1.14
O=c1nc(NO)ccn1[C@@H]1O[C@H](CO)[C@@H](O)[C@H]1O | RT-PCR, refers to: CYP3A1 | rat, arthritis model, liver | oral, 80 mg/kg twice daily, 5 days | baseline: untreated arthritic rats | mRNA level | 0.4 fold
C#CCOc1ccc(/C=C2\SC(=O)N(CC(=O)NCc3ccccc3)C2=O)cc1 | inverse Kirkwood-Buff integrals | binary solvent mixture | 298.15 K, mole fraction x1 0.75 |  | Kirkwood-Buff integral G2,3 | -367 cm³/mol
CC(C)CCN(Cc1ccc(F)cc1)c1nc(C#N)nc(N2CCOCC2)n1 |  | CD-1 mouse female | intraperitoneal, 10 mg/kg | baseline: brain over plasma | brain/plasma AUC ratio | 0.61
COc1ccc2cc(-c3ccc(-c4ccc(C)cn4)nc3)oc2c1 | TCSPC | water, HEPES 100 mM | pH 7.4 |  | fluorescence lifetime | 2.48 ns
Cc1ccc(C(C)C)cc1.O=C(N=P(c1ccccc1)(c1ccccc1)c1ccccc1)c1ccccn1.[Cl-].[Cl-].[Ru+2] | ICP-MS, refers to: ruthenium | NOD.CB17-Prkdc scid/J mouse, plasma | intraperitoneal, 5 mg/kg, after first dose |  | absorption half-life | 30 min
CC(C)C[C@@H](NC(=O)[C@H](NC(=O)[C@H]1CCCN1)[C@H](C)O)C(=O)N[C@H](Cc1c[nH]cn1)C(=O)N[C@@H](C(=O)N[C@H](Cc1c[nH]cn1)C(=O)N[C@H](CC(N)=O)C(=O)N[C@H](CCCNC(=N)N)C(=O)N[C@H](CCCNC(=N)N)C(=O)N[C@H](CCCNC(=N)N)C(=O)N[C@H](CCCNC(=N)N)C(=O)N[C@H](CCCNC(=N)N)C(N)=O)[C@H](C)O |  | beagle dog, plasma | intravenous, 3 mg/kg, single dose |  | Cmax | 32000 ng/mL
COc1cc(OC)cc(C2=C3C(C)=C(I)C(C)=[N+]3[B-](F)(F)n3c(/C=C/c4cccs4)c(I)c(C)c32)c1 |  | DMSO |  |  | absorption maximum | 604 nm
N=C(N)NCCC[C@@H]1NC(=O)[C@H](Cc2c[nH]c3ccccc23)NC(=O)[C@@H](CC2CCCCC2)NC(=O)[C@@H]2CCCN2C(=O)[C@@H](NC(=O)CCc2ccccc2)CCCNC1=O |  | C57BL/6J mice, brain | oral, 1 mg/kg |  | Tmax | 20.7 min
Cc1ccccc1/N=N/c1ccc(/N=N/c2c(O)ccc3ccccc23)c(C)c1 |  | rat whole blood extract | 0.2 µg/L, 30 days, -20 °C, long-term storage |  | measured concentration | 0.189 µg/L
C[Si](C)(C[C@@H](CN)CC(=O)O)C1CC1 | neuromuscular coordination | Wistar rat male | oral, 300 mg/kg, 1 h |  | performance time | 180 s
O=C(O)[C@@H]1C[C@@H](O)CN1C(=O)[C@@H]1CCCN1 | potentiometric titration | water | 25 °C, 0.15 mol/dm3 NaCl |  | pKa1 | 2.02
CC(C)(O)c1ncc([S@](N)(=O)=NC(=O)Nc2c3c(cc4c2CCC4)CCC3)s1 |  | human, plasma | oral, 3 mg, single dose, fasted, healthy volunteers |  | Tmax | 45.6 min
Cc1ccc(NCCNc2ccc(F)c(Cl)c2)cc1S(=O)(=O)N1CCOCC1 |  | water |  |  | kinetic solubility | 39 µM (≈ 16.7 µg/mL)

Excerpt of the above:
SMILES | assay | test system | conditions | how to read | quantity | value
Cc1ccccc1/N=N/c1ccc(/N=N/c2c(O)ccc3ccccc23)c(C)c1 |  | rat whole blood extract | 0.2 µg/L, 30 days, -20 °C, long-term storage |  | measured concentration | 0.189 µg/L
CC(C)c1cnc(-c2cc(Cl)ccc2F)cc1Nc1ccncc1C(=O)NC(CO)CO | monotherapy, refers to: blood alkaline phosphatase increased | human patients | oral, dose not given, grade 4, phase I A |  | patients with treatment-related adverse event | 0%
